Assay results collected from several papers.
Parts stem from different laboratories: compare values within a part only. Substitutions count along the parent as printed.

Series 1 — method: RNA Bind-n-Seq; form: RNA; sample: in vitro; concentration: not given; relative to: input RNA pool; reading: higher = stronger binding; measurement: bound/input enrichment
Target: RING finger protein unkempt homolog, zinc fingers 1-6, GST-SBP tag (UNK, Homo sapiens, UniProt Q9C0B0, residues 30-357)
Notes: RNA with constant flanks, human and mouse sites, ends assumed
Constant ends, left off below: GGGAGUUCUACAGUCCGACGAUC … CAACAGAGGAUUGAGCAUCA
Target sequence (chain): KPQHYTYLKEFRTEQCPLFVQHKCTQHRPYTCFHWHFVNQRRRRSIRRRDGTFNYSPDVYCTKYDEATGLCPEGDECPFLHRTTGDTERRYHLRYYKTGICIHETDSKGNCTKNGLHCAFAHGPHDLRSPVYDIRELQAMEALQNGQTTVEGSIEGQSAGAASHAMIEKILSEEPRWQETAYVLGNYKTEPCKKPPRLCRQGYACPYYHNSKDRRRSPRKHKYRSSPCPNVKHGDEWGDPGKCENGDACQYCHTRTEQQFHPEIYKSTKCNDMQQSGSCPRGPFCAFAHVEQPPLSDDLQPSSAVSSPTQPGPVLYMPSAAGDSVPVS
UGUGAUCAUGCCAAUCCACAGCUUUCAAAUCCAAGCCCUUUUCAGACACUUGGGCUGGACUUAGUUUUGGAAUGUGUUGCUAGGUACCAGCCUAAGCAGCGUUCAAUGUUUACCUUUGUA: 0.128 ratio
ACAGUGUUUUUGACAUACCCUGACCAUCACUUUUCUGAAAUGGAAACUCUGGGCAUUUUUUUUUUAAAGCAAUCCUUGCUUUUUUGUGAGUUUGCAGACUUUCAGCAUCUUCCAAUUGCU: 0.273 ratio
CUGCUACUUUGGGCUCAGAAUGAGCUAGACCAGAAGAAAGUAAAAUAUCCCAAAAUGACAGACCUCAGCAAAGGUGUGAUUGAGGAGCCCAAGUAGAGCCUGUGCAUGGACCCAGCACUG: 0.23 ratio
AUGAUGAAGCUAUCAGAAGAAAAUCGGCACCUGAGAGAUGAAGGUUUAAGGCUCAGAAAGGUAGCACAUUCGGAUAAACCUGGAUCAACCUCAACUGCAUCCUUCAGAGAUAAUGUCACC: 0.096 ratio
CCAGUCCCUGAGCUCCCAGAUUUCUUCCAGGGCAAGCACUUCUUUCUUUACGGGGAGUUCCCUGGGGACGAGCGGCGGAAACUCAUCCGAUACGUCACAGCCUUCAAUGGGGAGCUCGAG: 0.213 ratio
AACCCAAGUAUUUUUAUGUAAAAAGAUUUCAAUUUAGAAUACUUCAUUUUUGAGAUGGAGUUUAGAAUAUUUCAUUUUGAAAUGGAACGAAAGGGUUAGGUUUUGAUGUAAAAGACAGGA: 2.15 ratio
CGCUUCGACGGGUAUGUCAUUGACGGUGCCACUGCUCUUUGGUGUGCUGCGGGAGCCGGACAUUUUGAAGUUGUUAAACUUCUAGUCAGCCAUGGAGCCAACGUGAACCACACCACAGUC: 0.0796 ratio
UAUGGUUAUGAUUACCAUAACUAUCGUGGUGGAUAUGAAGAUCCAUACUAUGGUUAUGAAGAUUUUCAAGUUGGAGCUAGAGGAAGGGGUGGUAGAGGAGCAAGGGGUGCUGCUCCAUCC: 0.541 ratio

Series 2 — method: RNA Bind-n-Seq; form: RNA; sample: in vitro; concentration: 200 nM; notes: whole 134-nt RNA, ends assumed; together with: 150 mM LiCl; relative to: input library; reading: higher = stronger binding; measurement: log2 enrichment; each molecule: 7-deaza-guanosine replaces G
Target: Ras GTPase-activating protein-binding protein 1, full length (G3BP1, Homo sapiens, UniProt Q13283)
Sequence of UniProt Q13283 (whole entry, looked up): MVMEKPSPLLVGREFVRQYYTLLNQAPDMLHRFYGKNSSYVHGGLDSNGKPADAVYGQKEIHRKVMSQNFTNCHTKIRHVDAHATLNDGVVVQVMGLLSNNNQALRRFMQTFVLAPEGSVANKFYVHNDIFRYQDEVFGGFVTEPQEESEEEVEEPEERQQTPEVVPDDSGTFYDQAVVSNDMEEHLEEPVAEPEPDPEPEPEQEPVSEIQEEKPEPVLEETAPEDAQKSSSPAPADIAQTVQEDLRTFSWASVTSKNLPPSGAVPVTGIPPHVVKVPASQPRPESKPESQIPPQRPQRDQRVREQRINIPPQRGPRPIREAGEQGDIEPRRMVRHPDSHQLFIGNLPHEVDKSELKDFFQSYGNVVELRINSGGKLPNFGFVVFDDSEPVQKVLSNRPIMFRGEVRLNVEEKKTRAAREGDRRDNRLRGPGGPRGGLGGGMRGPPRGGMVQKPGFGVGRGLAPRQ
Constant ends, left off below: GGGAGUUCUACAGUCCGACGAUC … UGGAAUUCUCGGGUGUCAAGG
GCAGGAAGUAAAAACAAAUGGAAAUGCUUCGGAUAGUGGCAGGGGUGGGGGUUGCUAAGGAAAGGGUGGGGUGGGAGUGGGUAAAGAGUU: 0.308
CAAGUCCUGUGCUACACAUCGUAUGUACCGAAUCGGAAAAAGGUUUUUGGAAAGGAAAGUAUUAUGUUACGCCGUUCGGAUCUGCACUUC: -1.36
UCCUGUGCUACACAUCGUAUGUACCGAAUCGGGAAAAAAGGAAAAAAGGGGAAAAAAGGGAAAGUAUUAUGUUACGCCGUUCGGAUCUGC: -0.223
CCUGUGCUACACAUCGUAUGUACCGAAUCGGGGAAAAAAGGGAAAAAAGGGAAAAAAGGGGAAAGUAUUAUGUUACGCCGUUCGGAUCUG: 0.63
CCUGUGCUACACAUCGUAUGUACCGAAUCGGGGUGGGGAAAAAAAGGGGAAAAAAAGGGGAAAGUAUUAUGUUACGCCGUUCGGAUCUGC: 0.0781
CCUGUGCUACACAUCGUAUGUACCGAAUCGGGGAGGGGUUUUUUUGGGGAAAAAAAGGGGAAAGUAUUAUGUUACGCCGUUCGGAUCUGC: 0.482
UAACUUUAGAGGCGGAUCUGAUGGAUAUGGCAGUGGACGUGGAUUUGGGGAUGGCUAUAAUGGGUAUGGAGGAGGACCUGGAGGUGGCAA: -0.0829
CACAGACAACACGCACCGACACAGACACAGAGGGAAGGGGUUGGGAUGGGGACAGGGUGCACAGCAGGGCGGGGUAGGACCCCAGCCCCU: 0.481

Series 3 — target: CCND3, cyclin fold, Cln2 fusion (human); method: yeast growth competition, sequencing; sample: yeast; notes: weak parent motif; relative to: not given; reading: higher = stronger binding; measurement: normalised enrichment score
Starting sequence: CDKN1A docking peptide (human); SKACRRLFGPVDS
D12E: 0.183
C4I: 0.47
S1A: 0.165
L7W: -0.184
K2W: -0.0579
A3H: 0.277
A3V: 0.159
F8T: -0.346
K2I: 0.537
K2M: 0.763
K2F: 0.308
P10A: 0.28
L7I: 0.102
V11A: 0.399
K2H: 0.348
C4H: 0.671
A3R: -0.225

Series 4 — method: protein binding microarray; form: double-stranded DNA, one strand shown; sample: in vitro; concentration: not given; relative to: not given; reading: higher = stronger binding; measurement: E-score
Target: Histone acetyltransferase KAT6A, winged helix 2, GST fusion (KAT6A, Homo sapiens, UniProt Q92794, residues 85-181)
Notes: 8-mer, flanks averaged, mean of 2 arrays, mostly near background
Construct (chain): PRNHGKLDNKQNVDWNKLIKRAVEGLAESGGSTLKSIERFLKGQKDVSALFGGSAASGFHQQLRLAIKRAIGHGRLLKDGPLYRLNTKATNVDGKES
ATTGACCA: -0.252
CGCACCCA: 0.141
AAGGGATC: -0.18
AGCCACCT: -0.0965
GGAGAGAC: 0.0186
TATAATCA: 0.0599
ACTGTTGA: -0.207
AACAGTTG: -0.265
ATACGTGG: -0.206
CCGTTAAC: -0.042
AACGTTTA: -0.189
AATCCCGA: 0.0593
CGAGGTTA: 0.000265
ATGGCCAT: -0.301
GAGGAAAC: 0.00302
ATGGCATC: -0.0757
ACGAGACG: -0.116
CATACGGC: 0.0862
CAAATCGA: -0.107
ACCGCACT: 0.234
AACCCTCA: -0.0572
ATATGTAA: 0.0076
CATGTCCC: -0.0686

For quick reference, copied from above (series 4):
ATACGTGG: -0.206
AACGTTTA: -0.189
AATCCCGA: 0.0593
